Measured values of several laboratories.
Numbered parts are unrelated; each lists some results of a single study. Positions count from the first letter of the parent shown.
UniProt O95819, sequence (whole entry, looked up): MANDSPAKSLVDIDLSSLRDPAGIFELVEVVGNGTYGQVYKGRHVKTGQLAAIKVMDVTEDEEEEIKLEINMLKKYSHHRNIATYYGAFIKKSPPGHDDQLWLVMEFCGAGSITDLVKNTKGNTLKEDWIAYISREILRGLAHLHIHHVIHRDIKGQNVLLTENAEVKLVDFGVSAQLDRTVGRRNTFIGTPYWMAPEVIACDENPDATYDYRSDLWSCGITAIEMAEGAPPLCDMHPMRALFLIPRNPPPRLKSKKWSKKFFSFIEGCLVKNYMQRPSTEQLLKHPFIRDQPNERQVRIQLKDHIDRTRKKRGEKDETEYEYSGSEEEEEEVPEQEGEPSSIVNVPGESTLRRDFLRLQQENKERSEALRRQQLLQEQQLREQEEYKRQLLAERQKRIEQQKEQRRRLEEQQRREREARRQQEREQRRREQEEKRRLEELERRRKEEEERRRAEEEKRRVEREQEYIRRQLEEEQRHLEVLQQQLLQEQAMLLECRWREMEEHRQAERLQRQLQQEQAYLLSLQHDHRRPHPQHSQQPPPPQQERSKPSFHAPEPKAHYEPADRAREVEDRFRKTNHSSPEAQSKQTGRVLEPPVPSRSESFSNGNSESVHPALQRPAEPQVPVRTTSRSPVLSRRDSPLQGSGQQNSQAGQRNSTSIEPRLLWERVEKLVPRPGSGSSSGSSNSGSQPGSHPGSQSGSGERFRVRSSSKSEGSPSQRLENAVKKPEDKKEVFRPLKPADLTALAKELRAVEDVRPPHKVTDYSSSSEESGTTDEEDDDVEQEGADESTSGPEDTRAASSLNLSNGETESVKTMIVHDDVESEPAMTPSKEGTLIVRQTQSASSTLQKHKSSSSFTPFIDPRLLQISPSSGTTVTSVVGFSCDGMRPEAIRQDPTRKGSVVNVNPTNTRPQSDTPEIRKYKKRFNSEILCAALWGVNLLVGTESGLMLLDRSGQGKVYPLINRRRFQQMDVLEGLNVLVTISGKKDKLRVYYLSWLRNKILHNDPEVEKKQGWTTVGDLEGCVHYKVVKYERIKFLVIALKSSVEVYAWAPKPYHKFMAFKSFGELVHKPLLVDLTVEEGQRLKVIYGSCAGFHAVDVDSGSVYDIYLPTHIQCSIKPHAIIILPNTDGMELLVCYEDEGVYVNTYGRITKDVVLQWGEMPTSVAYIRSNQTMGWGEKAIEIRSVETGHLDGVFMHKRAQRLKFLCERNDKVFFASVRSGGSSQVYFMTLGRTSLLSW
UniProt Q07912, sequence (whole entry, looked up): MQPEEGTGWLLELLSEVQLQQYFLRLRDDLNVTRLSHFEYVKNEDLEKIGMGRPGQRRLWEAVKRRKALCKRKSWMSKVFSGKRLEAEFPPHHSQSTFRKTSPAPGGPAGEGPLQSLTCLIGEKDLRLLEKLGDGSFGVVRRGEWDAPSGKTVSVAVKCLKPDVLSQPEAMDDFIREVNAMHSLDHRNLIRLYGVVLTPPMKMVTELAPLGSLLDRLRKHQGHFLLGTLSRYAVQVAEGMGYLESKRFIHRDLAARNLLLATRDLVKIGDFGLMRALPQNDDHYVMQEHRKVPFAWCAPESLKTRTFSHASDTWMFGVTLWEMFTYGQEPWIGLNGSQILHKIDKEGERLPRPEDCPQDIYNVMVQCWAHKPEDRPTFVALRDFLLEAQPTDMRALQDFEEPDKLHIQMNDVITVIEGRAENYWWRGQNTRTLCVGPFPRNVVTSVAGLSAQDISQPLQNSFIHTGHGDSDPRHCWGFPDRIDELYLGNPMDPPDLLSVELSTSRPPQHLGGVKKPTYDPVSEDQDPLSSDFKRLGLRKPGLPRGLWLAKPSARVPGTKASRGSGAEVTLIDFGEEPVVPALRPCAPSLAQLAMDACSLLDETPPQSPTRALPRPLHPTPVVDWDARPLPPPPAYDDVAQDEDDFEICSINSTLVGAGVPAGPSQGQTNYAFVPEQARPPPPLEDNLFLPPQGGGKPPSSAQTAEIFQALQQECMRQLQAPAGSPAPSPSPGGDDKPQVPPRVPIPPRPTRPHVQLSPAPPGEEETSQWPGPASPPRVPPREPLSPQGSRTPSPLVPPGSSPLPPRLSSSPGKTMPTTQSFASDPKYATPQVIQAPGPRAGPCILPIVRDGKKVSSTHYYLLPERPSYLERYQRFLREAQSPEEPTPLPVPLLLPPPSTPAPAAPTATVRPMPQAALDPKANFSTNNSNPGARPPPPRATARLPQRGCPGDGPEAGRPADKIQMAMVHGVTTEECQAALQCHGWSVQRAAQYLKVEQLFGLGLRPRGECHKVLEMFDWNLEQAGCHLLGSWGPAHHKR
UniProt P11309, sequence (whole entry, looked up): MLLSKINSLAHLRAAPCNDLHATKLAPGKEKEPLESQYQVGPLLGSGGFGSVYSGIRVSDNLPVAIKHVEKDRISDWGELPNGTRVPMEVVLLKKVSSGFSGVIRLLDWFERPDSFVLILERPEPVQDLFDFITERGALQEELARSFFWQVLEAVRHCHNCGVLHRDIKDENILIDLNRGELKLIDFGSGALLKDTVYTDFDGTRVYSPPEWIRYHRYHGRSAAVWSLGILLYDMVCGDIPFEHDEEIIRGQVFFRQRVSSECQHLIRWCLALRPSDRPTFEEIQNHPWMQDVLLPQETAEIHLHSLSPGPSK
UniProt Q96J92, sequence (whole entry, looked up): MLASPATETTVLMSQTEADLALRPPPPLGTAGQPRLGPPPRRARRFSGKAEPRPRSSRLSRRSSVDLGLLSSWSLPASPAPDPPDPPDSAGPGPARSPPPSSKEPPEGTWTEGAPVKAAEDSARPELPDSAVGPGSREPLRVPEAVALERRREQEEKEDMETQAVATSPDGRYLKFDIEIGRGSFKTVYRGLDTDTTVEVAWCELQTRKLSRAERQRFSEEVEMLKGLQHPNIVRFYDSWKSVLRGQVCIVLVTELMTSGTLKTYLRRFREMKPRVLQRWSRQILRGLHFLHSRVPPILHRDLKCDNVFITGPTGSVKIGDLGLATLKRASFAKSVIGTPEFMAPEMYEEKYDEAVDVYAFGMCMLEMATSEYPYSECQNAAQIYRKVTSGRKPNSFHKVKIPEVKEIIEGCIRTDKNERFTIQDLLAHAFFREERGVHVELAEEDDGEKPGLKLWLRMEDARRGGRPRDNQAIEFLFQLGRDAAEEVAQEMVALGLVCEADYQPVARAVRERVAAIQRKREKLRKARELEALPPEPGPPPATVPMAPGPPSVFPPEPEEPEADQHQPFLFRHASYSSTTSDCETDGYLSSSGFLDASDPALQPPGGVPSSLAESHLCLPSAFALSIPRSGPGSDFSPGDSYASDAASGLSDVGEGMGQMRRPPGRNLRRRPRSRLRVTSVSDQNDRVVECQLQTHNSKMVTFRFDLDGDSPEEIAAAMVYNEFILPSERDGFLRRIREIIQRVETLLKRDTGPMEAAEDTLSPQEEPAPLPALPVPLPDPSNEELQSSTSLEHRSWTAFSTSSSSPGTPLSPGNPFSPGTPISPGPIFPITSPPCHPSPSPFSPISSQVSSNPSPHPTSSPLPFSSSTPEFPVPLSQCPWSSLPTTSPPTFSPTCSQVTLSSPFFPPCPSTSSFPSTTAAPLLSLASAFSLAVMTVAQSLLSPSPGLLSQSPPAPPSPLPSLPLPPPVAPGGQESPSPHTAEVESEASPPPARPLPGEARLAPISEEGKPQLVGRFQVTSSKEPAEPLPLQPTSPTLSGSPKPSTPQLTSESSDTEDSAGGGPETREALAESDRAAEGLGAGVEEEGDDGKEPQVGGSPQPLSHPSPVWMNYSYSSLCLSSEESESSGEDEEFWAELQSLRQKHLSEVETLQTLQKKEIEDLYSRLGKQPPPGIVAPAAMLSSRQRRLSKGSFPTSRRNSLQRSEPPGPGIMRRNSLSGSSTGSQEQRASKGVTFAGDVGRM
UniProt Q96L34, sequence (whole entry, looked up): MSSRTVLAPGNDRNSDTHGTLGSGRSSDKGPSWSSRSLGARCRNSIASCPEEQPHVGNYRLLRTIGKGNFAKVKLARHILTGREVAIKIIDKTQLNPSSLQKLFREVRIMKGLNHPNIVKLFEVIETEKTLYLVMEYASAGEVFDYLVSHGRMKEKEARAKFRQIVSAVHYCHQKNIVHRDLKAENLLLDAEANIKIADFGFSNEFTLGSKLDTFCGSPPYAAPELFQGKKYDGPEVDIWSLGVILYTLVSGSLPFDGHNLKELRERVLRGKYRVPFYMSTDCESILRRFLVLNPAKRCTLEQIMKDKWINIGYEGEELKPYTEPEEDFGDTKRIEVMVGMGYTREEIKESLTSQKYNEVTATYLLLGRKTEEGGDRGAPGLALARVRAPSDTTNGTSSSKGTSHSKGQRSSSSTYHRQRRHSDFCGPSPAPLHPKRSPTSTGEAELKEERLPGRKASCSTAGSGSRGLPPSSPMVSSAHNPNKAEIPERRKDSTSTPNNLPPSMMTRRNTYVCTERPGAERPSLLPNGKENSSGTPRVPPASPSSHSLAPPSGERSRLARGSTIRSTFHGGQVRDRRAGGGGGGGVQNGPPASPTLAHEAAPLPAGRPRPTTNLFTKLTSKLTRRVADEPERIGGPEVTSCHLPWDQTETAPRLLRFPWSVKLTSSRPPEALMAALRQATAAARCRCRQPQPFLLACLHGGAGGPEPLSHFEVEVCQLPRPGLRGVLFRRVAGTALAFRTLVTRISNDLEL
UniProt Q9HAZ1, sequence (whole entry, looked up): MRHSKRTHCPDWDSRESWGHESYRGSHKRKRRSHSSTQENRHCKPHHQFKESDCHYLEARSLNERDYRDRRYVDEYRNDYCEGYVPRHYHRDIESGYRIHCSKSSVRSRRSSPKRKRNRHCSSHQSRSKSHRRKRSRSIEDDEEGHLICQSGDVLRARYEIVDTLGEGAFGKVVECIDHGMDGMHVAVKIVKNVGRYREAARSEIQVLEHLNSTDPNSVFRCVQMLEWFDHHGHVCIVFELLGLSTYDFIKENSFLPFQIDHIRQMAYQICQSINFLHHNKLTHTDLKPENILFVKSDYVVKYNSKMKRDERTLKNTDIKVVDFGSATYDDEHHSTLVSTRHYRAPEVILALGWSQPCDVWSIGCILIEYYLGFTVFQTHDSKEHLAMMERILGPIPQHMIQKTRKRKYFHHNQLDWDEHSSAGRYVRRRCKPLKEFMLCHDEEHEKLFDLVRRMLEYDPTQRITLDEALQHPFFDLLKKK

Series 1 — observed: cell-free assay; technique: competition with immobilised ligand; concentration: 0.1 µM
Structure (SMILES): CCOC(=O)c1cc2cc(-c3cc(C(=O)NCc4ccc(C(=O)O)cc4)nn3C)ccc2[nH]1
| target | remaining binding |
| --- | --- |
| WNK4 (Homo sapiens, UniProt Q96J92) | 97% |
| Insulin receptor (INSR, Homo sapiens, UniProt P06213) | 81% |
| MAK (Homo sapiens, UniProt P20794) | 100% |
| MAP3K3 (Homo sapiens, UniProt Q99759) | 94% |
| STK4 (Homo sapiens, UniProt Q13043) | 100% |
| TSSK1B (Homo sapiens, UniProt Q9BXA7) | 100% |
| TNK2 (Homo sapiens, UniProt Q07912) | 100% |
| MUSK (Homo sapiens, UniProt O15146) | 64% |
| PKN2 (Homo sapiens, UniProt Q16513) | 86% |
| FGFR2 (Homo sapiens, UniProt P21802) | 89% |
| PIM1 (Homo sapiens, UniProt P11309) | 95% |
| SIK2 (Homo sapiens, UniProt Q9H0K1) | 100% |
| MAP4K4 (Homo sapiens, UniProt O95819) | 95% |
| EGFR (Homo sapiens, UniProt P00533) | 92% |

Series 2 — technique: RNA Bind-n-Seq; molecule type: RNA; sample: in vitro; concentration: 20 nM; setting: 6-mer, flanks averaged, single round; together with: 150 mM LiCl; baseline: input library; reading: higher = stronger binding
Target: TAR DNA-binding protein 43, full length, His tag (TARDBP, Homo sapiens, UniProt Q13148, residues 1-414)
| Strand | 6-mer enrichment (R) |
| --- | --- |
| AGGUUA | 0.946 |
| GACAUA | 0.853 |
| UCUCUC | 0.895 |
| AGCCAC | 0.9 |
| CUCGUA | 0.825 |
| GUUUCA | 0.96 |
| GACAGU | 0.917 |
| GCUGUA | 1.06 |

Series 3 — SMILES: CCOc1cc2ncnc(Nc3cccc(Br)c3)c2cc1OCC; observed: enzyme activity; mode: inhibitor; concentration: 0.5 µM; baseline: control
| target | remaining activity |
| --- | --- |
| GRK4 (Homo sapiens, UniProt P32298) | 96.2% |
| CLK4 (Homo sapiens, UniProt Q9HAZ1) | 83.1% |
| PNCK (Homo sapiens, UniProt Q6P2M8) | 103% |
| MAPK11 (Homo sapiens, UniProt Q15759) | 89% |
| KDR (Homo sapiens, UniProt P35968) | 92% |
| MARK4 (Homo sapiens, UniProt Q96L34) | 99.2% |
| ROCK1 (Homo sapiens, UniProt Q13464) | 98.8% |
| AKT2 (Homo sapiens, UniProt P31751) | 87.6% |
| TXK (Homo sapiens, UniProt P42681) | 80.2% |
| PRKG2 (Homo sapiens, UniProt Q13237) | 83.9% |
| MAPK14 (Homo sapiens, UniProt Q16539) | 87.5% |
| MARK2 (Homo sapiens, UniProt Q7KZI7) | 94.5% |
| Cyclin-dependent kinase 9, with cyclin K (CDK9, Homo sapiens, UniProt P50750) | 102% |

Series 4 — technique: DHFR PCA, deep sequencing; sample: yeast; together with: (+)-ABA 0.0091 µM; baseline: wild-type fitted maximum; reading: higher = stronger binding
Target: ABI1, truncated, D143A, DHFR fusion (Arabidopsis thaliana)
Setting: methotrexate growth selection, single substitutions
Starting sequence: PYL1, truncated, DHFR fusion (Arabidopsis thaliana); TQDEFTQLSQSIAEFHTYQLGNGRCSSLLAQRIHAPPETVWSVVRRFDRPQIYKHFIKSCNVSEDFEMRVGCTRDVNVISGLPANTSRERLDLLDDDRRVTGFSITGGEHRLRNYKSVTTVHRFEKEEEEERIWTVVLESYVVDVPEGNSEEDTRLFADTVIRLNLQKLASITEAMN; partner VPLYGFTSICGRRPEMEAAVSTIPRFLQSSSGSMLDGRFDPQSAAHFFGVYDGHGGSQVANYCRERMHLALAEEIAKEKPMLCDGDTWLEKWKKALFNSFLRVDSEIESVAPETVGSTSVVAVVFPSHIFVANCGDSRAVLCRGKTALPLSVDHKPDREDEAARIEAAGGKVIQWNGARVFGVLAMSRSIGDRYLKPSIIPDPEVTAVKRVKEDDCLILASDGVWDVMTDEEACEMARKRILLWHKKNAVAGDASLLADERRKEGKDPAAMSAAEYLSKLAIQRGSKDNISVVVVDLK
| Variant | relative binding score [%] |
| --- | --- |
| T101W | -8.45 |
| T160G | -4.78 |
| L169M | 2.18 |
| F47E | -0.289 |
| E64R | 25.5 |
| V142L | -0.757 |
| R88D | -4.56 |
| R69S | 17.3 |
